Measurements gathered from unrelated publications.
Each line is one published result; not all experiments were run side by side. ± gives the spread as reported.

`CCCCc1nc2cc(/C=C/C(=O)NO)ccc2n1CCN(CC)CC`: “tumour growth inhibition” 77% (mouse, SET-2 subcutaneous xenograft; 125 mg/kg every other day, day 0 to 18).
`COCc1cc(C(=O)Nc2cc([C@H]3CC[C@@H](OC(=O)NC(C)C)C3)[nH]n2)n(C)n1` — result for “tumour growth inhibition”: 82% (MCF7 xenograft, NSG mouse; oral twice daily, high dose).
Under “tumour growth inhibition”, `C[C@@H]1COCCN1c1cc([C@]2(O)C[C@H]3CC[C@@H](C2)O3)c2cnn(-c3cc[nH]n3)c2n1` is recorded as 43.9 ± 4% (Granta-519 xenograft, mouse; 5 mg/kg QD x3, day 20).
For `O=C1CC[C@H](N2Cc3cc(N4CCN(CC5CCN(c6ccc([C@@H]7c8ccc(O)cc8CC[C@@H]7c7ccccc7)cc6)CC5)CC4)ccc3C2=O)C(=O)N1`, “tumour growth inhibition” read 120% (mouse MCF7 orthotopic xenograft; oral, 30 mg/kg once daily, 28 days).
Under “tumour growth inhibition”, `COc1ccc(F)cc1C(=O)NCc1ccc(-c2nn([C@@H](C)C(F)(F)F)c(N)c2C(N)=O)cc1` is recorded as 101% (TMD8, mouse xenograft; oral, 30 mg/kg twice daily, day 14, 336 h).
Under “tumour growth inhibition”, `C[C@]12CC[C@H](n3ccnc3)CC1=CC[C@@H]1[C@@H]2CC[C@]2(C)C(n3cnc4ccccc43)=CC[C@@H]12.Cl.Cl` is recorded as 79.2% (mouse CWR22Rv1 xenograft; oral, 5 mg/kg once daily, 16 days, 5 days per week).
`Cl.O=C(c1cc(Cc2n[nH]c(=O)c3ccccc23)ccc1F)N1CC(CNC2CC2)C1` — result for “tumour growth inhibition”: 111% (BALB/c nude mouse, CAPAN-1 xenograft; oral, 200 mg/kg once daily, 28 days).
`C=CC(=O)Nc1cc(Nc2nccc(Nc3cc(Cl)c(F)cc3C(C)(C)O)n2)c(OC)cc1N1CC[C@@H](N(C)C)C1` — result for “tumour growth inhibition”: 27.6% (NCI-H2073 EGFR SVD knock-in, BALB/c nude mouse, NCI-H2073 xenograft; 12.5 mg/kg twice daily, 21 days).
